Assay results collected from several papers.
A part holds a random share of what one study measured. Substitutions count along the parent as printed.

Series 1
Target: PABPC1L2, full length, GST fusion (mouse, UniProt A0ABA7IW68)
Method: RNAcompete
Molecule type: RNA
Sample: in vitro
Tested at: 20 nM
Setting: 7-mer, probes averaged, single round
Relative to: mean of 7-mers
Direction: higher = stronger binding
Construct (chain): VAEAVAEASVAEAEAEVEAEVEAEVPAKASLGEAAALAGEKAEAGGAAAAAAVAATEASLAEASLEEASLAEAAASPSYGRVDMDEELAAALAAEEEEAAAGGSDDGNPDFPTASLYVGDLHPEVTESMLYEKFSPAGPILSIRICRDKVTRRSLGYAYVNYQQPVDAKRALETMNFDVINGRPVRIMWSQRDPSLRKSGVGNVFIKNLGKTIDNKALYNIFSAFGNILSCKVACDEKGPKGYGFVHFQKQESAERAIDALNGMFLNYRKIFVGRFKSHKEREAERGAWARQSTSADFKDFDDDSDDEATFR
| Strand | 7-mer Z-score |
| --- | --- |
| AUGCUAA | 0.0551 |
| CGGAACA | 0.468 |
| CCGGGUG | -0.121 |
| CAAUAUG | 0.0642 |
| CACAUCA | -0.289 |
| GGAGUUG | -0.0645 |
| UCCCAAU | -0.333 |
| CGAGCUU | -0.235 |

Series 2
Target: Histone acetyltransferase KAT6A, winged helix 2, GST fusion (KAT6A, Homo sapiens, UniProt Q92794, residues 85-181)
Method: protein binding microarray
Molecule type: double-stranded DNA, one strand shown
Sample: in vitro
Tested at: not given
Setting: 8-mer, flanks averaged, mean of 2 arrays, mostly near background
Relative to: not given
Direction: higher = stronger binding
Construct (chain): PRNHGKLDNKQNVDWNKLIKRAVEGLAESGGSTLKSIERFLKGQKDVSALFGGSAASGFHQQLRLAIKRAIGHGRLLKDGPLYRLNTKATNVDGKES
| Strand | E-score |
| --- | --- |
| CCGACTCC | 0.00136 |
| CGGCACCC | -0.0302 |
| ACCGCACC | 0.118 |
| CGAAACAC | 0.164 |
| ATGTGAAA | -0.0407 |
| ATTGTCGG | -0.046 |
| AGCCTGGG | 0.172 |
| ACTTATTC | -0.0828 |

Other studies, line by line
P1: PafA, mature enzyme, eGFP fusion (Elizabethkingia meningoseptica, UniProt Q9KJX5); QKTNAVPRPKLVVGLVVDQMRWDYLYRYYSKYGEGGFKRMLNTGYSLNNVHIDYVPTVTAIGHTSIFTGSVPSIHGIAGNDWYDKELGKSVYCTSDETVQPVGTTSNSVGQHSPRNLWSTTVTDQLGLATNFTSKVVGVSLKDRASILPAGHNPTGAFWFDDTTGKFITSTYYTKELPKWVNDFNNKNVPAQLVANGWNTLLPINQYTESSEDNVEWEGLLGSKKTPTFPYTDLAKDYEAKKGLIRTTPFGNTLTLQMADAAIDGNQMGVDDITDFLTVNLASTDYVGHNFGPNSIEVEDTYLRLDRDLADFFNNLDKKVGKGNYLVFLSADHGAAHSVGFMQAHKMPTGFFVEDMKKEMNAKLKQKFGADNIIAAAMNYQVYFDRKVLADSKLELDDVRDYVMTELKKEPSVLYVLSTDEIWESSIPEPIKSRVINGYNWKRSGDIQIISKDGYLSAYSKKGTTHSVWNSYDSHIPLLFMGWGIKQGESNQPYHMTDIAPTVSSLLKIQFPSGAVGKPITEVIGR
| Molecule | tested on | test | test system | setting | how to read | quantity | result |
| --- | --- | --- | --- | --- | --- | --- | --- |
| HMGA1 (Homo sapiens, UniProt P17096) | H2BC5 (Homo sapiens, UniProt P58876) | cross-linking MS |  | hits only |  | interaction screen | cross-linked |
| P1 L329V | inorganic phosphate, free oxyanion | microfluidic competitive inhibition | in vitro, cell-free expressed | not given, derived from inhibition constants, unchanged parent 615000 nM | lower = stronger binding | phosphate dissociation constant | 535 µM |

Excerpt of the above (other studies, line by line):
| Molecule | tested on | test | test system | setting | how to read | quantity | result |
| --- | --- | --- | --- | --- | --- | --- | --- |
| HMGA1 (Homo sapiens, UniProt P17096) | H2BC5 (Homo sapiens, UniProt P58876) | cross-linking MS |  | hits only |  | interaction screen | cross-linked |
| P1 L329V | inorganic phosphate, free oxyanion | microfluidic competitive inhibition | in vitro, cell-free expressed | not given, derived from inhibition constants, unchanged parent 615000 nM | lower = stronger binding | phosphate dissociation constant | 535 µM |
